Earlier results as cited in several papers.
± marks the error that the study gave.
Cell line: A549

Structure (SMILES) = c1ccc(Cn2cc(COc3ccc(-c4nc5ccc(C6=NCCN6)cc5[nH]4)cc3)nn2)cc1; conditions = concentration not given; measurement = early apoptotic cells increase; value = 27%
Structure (SMILES) = N#CC1=C(N)OC2=C(C(=O)CCC2)C1c1ccc(-n2cccn2)cc1 (stereo not drawn); test = cell growth; measurement = IC50; value = 2250 ± 670 nM
Structure (SMILES) = COc1cc(-c2nc3ccc(C)cc3[nH]2)cc(OC)c1OC; test = cell growth; measurement = IC50; value = 11.8 µg/mL
Structure (SMILES) = CNc1nc(C)c(C(=O)/C=C/c2ccc(O)cc2)s1; test = cell growth; measurement = IC50; value = 16300 nM
Structure (SMILES) = CSCc1ccccn1.[Cl-].[Cl-].[Ru+2].c1ccc(-c2ccnc3c2ccc2c(-c4ccccc4)ccnc23)cc1.c1ccc(-c2ccnc3c2ccc2c(-c4ccccc4)ccnc23)cc1; conditions = added: green light 19 J/cm2; scale = baseline: dark EC50 over light EC50; measurement = phototoxicity index; value = 5.5
Structure (SMILES) = CCOC(=O)C1=C(CSC(=S)N(C2CCCCC2)C2CCCCC2)N(C)C(=O)NC1c1ccccc1 (stereo not drawn); conditions = concentration not given; scale = baseline: untreated; measurement = early apoptotic cells; value = 3.27%
Structure (SMILES) = [Cl-].[Cl-].[Ru+2].c1ccc(-c2ccccn2)nc1.c1ccc(-c2ccccn2)nc1.c1cnc2c(c1)ccc1cccnc12; conditions = dark; measurement = IC50; value = > 100000 nM
Structure (SMILES) = CC1=C(CO)C(=O)O[C@@H]([C@@H](C)[C@H]2CC[C@H]3[C@@H]4C[C@H]5O[C@]56[C@@H](O)C=CC(=O)[C@]6(C)[C@H]4CC[C@]23C)C1; test = cell growth; measurement = IC50; value = 40 nM
Structure (SMILES) = COc1cc(-n2cc(-c3cc(-c4nc(-c5cc([N+](=O)[O-])cc([N+](=O)[O-])c5)no4)[nH]n3)nn2)cc(OC)c1OC; measurement = IC50; value = 450 ± 23 nM
Structure (SMILES) = O=C1NCC(Cc2ccccc2)N(CC2CCCN2CC(CC2CCCCC2)N2CC(Cc3ccc(O)cc3)N(CCc3ccccc3)C(=O)C2=O)C1=O (stereo not drawn); test = cell viability; system = lung; measurement = IC50; value = > 100000 nM
Structure (SMILES) = CSCc1ccccn1.[Cl-].[Cl-].[Ru+2].c1ccc(-c2ccccn2)nc1.c1ccc(-c2ccccn2)nc1; conditions = added: green light 19 J/cm2; scale = baseline: dark EC50 over light EC50; measurement = phototoxicity index; value = 5.5
Structure (SMILES) = CCC1=C(O)c2c(oc(-c3cc4ccccc4s3)cc2=O)C(CC)(CC)C1=O; test = cell growth, SRB; measurement = IC50; value = 14000 nM
Structure (SMILES) = C=CC(=O)N(c1cccc2ccccc12)S(=O)(=O)c1ccc(OC)cc1; test = cell growth; measurement = IC50; value = 1350 nM
Structure (SMILES) = CCN1C(=O)C2CCC(O[Si](c3ccccc3)(c3ccccc3)C(C)(C)C)CC2C1=O (stereo not drawn); measurement = IC50; value = 19000 nM
Structure (SMILES) = CCC1=C(O)c2c(oc(-c3ccc(OC)c4ccccc34)cc2=O)C(CC)(CC)C1=O; test = cell growth, SRB; measurement = IC50; value = 1480 nM

Some of these lines once more:
Structure (SMILES) = N#CC1=C(N)OC2=C(C(=O)CCC2)C1c1ccc(-n2cccn2)cc1 (stereo not drawn); test = cell growth; measurement = IC50; value = 2250 ± 670 nM
